# Assay results from different studies.
# Protocols differ between the studies behind these lines. ± marks the error that the study gave.
# EGFR: Epidermal growth factor receptor (EGFR, Homo sapiens, UniProt P00533)
# EGFR L861Q: Epidermal growth factor receptor (EGFR, Homo sapiens, UniProt P00533, L861Q)
Structure (SMILES),target,test,setting,scale,remaining activity
COc1cc(N2CCN(C)CC2)ccc1Nc1nc(N)n(C(=S)NCc2c(Cl)cccc2Cl)n1,"EGFR (Homo sapiens, UniProt P00533, A750P/del747-749)",enzyme activity,10 µM,relative to: control,1.4%
O=C(NC1CCC1)c1ccc2nc(-c3cccc(NS(=O)(=O)NCCN4CCCCC4)c3)cn2c1,"EGFR (Homo sapiens, UniProt P00533, T790M)",enzyme activity,10 µM,,100%
C=CC(=O)N1CCC[C@@H](n2nc(-c3ccc(Oc4ccccc4)cc3)c3c(N)ncnc32)C1,EGFR,"kinase activity, inhibitor, HotSpot radiometric","100 nM, together with: ATP 10 µM",,13.6 ± 1.7%
CCN(CC)c1ccc(C2=NNC(=O)CC2C)cc1[N+](=O)[O-] (centres unmarked),EGFR,"enzyme activity, inhibitor",10 µM,relative to: vehicle,102%
COc1cc(N2CCN(C)CC2)ccc1Nc1nc(N)n(C(=O)NCc2c(Cl)cccc2Cl)n1,EGFR,enzyme activity,10 µM,relative to: control,24%
Cc1cc(Nc2cc(N3CCN(C)CC3)nc(Sc3ccc(NC(=O)C4CC4)cc3)n2)[nH]n1,"EGFR (Homo sapiens, UniProt P00533, L858R/T790M)",kinase activity,"0.03 µM, T790M/L858R",relative to: control,95%
c1cnc2ccc(Nc3nc(NC4CC4)c4nc[nH]c4n3)cc2c1,EGFR,"kinase activity, inhibitor, SelectScreen kinase profiling",1 µM,relative to: control,108%
COc1ccc(F)cc1C(=O)NCc1ccc(-c2nn([C@@H](C)C(F)(F)F)c(N)c2C(N)=O)cc1,EGFR,"kinase activity, inhibitor, HotSpot radiometric","100 nM, together with: ATP 10 µM",,106 ± 1.6%
CC(C)Oc1cc(N2CCN(C)CC2)ccc1Nc1nc(N)n(C(=O)NCc2ccccc2S(=O)(=O)C(C)C)n1,"EGFR (Homo sapiens, UniProt P00533, G719C)",enzyme activity,10 µM,relative to: control,3.6%
COc1cc(-c2cncc3c2CN(C)Cc2cc(N4CCNCC4)ccc2-3)cc(OC)c1OC,EGFR L861Q,kinase activity,"1 µM, together with: ATP 10 µM",relative to: DMSO control,48%
C=CC(=O)N1CCC([C@@H]2CCNc3c(C(N)=O)c(-c4ccc(Oc5ccccc5)cc4)nn32)CC1,EGFR,"kinase activity, inhibitor, HotSpot radiometric","100 nM, together with: ATP 10 µM",,65.5 ± 0.9%
Cc1[nH]c(/C=C2\C(=O)Nc3ccc(F)cc32)c(C)c1C(=O)N[C@H]1CCN(C(=O)N(C)C)C1,EGFR,kinase activity,1 µM,relative to: control,105%
COc1cc(N2CCN(C)CC2)ccc1Nc1nc(N)n(C(=O)NCc2ccccc2S(=O)(=O)C(C)C)n1,"EGFR (Homo sapiens, UniProt P00533, G719S)",enzyme activity,10 µM,relative to: control,1.8%
CCCOc1ccc(OC)c(F)c1C(=O)c1ccc(C(=O)N[C@@H]2CNC[C@H]2NC(=O)c2ccc3[nH]ncc3c2)cc1,EGFR L861Q,enzyme activity,10 µM,,63%

# Repeated from above:
Structure (SMILES),target,test,setting,scale,remaining activity
COc1cc(N2CCN(C)CC2)ccc1Nc1nc(N)n(C(=S)NCc2c(Cl)cccc2Cl)n1,"EGFR (Homo sapiens, UniProt P00533, A750P/del747-749)",enzyme activity,10 µM,relative to: control,1.4%
O=C(NC1CCC1)c1ccc2nc(-c3cccc(NS(=O)(=O)NCCN4CCCCC4)c3)cn2c1,"EGFR (Homo sapiens, UniProt P00533, T790M)",enzyme activity,10 µM,,100%
